Results from different studies.
Each line is one published result; not all experiments were run side by side.

Compound | organism | assay | system | setting | how to read | measurement | value
Cc1cc(Nc2ccc(S(F)(F)(F)(F)F)cc2)n2nc(C(C)(F)F)nc2n1 | Plasmodium falciparum | 12-lead Holter ECG | human malaria patients | oral, 250 mg, QTc above 450 ms | – | patients with QTcF above threshold | 11.1%
CCCCCCCCC(=O)OC[C@H]1O[C@@](C#N)(c2ccc3c(N)ncnn23)[C@H](O)[C@@H]1O | human respiratory syncytial virus | viral replication, viral protein ELISA | HEp-2, A2 | 5 days | reference: CC50 over EC50 | selectivity index | 92.9
Nc1nc2c(ncn2COCCO)c(=O)[nH]1 | Herpes simplex virus 2 | – | HeLa, 333 | – | reference: CC50 over IC50 | therapeutic index | > 100
CC[C@H](C)[C@H](N)C(=O)O | Bacillus subtilis | – | NCIB3610, MOPS medium | 1 mM, 1 mM equimolar amino acid mixture | – | uptake half-time | > 25 h
CC(C)C(=O)OC[C@H]1O[C@@](C#N)(c2ccc3c(N)ncnn23)[C@H](O)[C@@H]1O | human respiratory syncytial virus | viral replication, viral protein ELISA | HEp-2, A2 | 5 days | reference: CC50 over EC50 | selectivity index | 148
N=C(N)NCCC[C@H](N)C(=O)O | Bacillus subtilis | – | 168, S7 medium | 1 mM, equimolar amino acid mixture | – | uptake half-time | 4.8 h
N#C[C@@]1(c2ccc3c(N)ncnn23)O[C@H](COC(=O)c2ccccc2)[C@@H](O)[C@H]1O | human respiratory syncytial virus | viral replication, viral protein ELISA | HEp-2, A2 | 5 days | reference: CC50 over EC50 | selectivity index | 165
N[C@@H](CO)C(=O)O | Bacillus subtilis | – | 168, S7 medium | 1 mM, equimolar amino acid mixture | – | uptake half-time | 9.5 h
Cc1cc(N)c2c(OCC(C)(C)C(=O)NC(C)C)cccc2n1 | Salmonella typhimurium | reverse mutation, plate incorporation | TA98 | 500 µg/plate, with rat liver S9 | – | mean revertant colonies | 27 colonies/plate

Excerpt of the above:
Compound | organism | assay | system | setting | how to read | measurement | value
Cc1cc(N)c2c(OCC(C)(C)C(=O)NC(C)C)cccc2n1 | Salmonella typhimurium | reverse mutation, plate incorporation | TA98 | 500 µg/plate, with rat liver S9 | – | mean revertant colonies | 27 colonies/plate
